Assay results of several laboratories.
Protocols differ between the studies behind these lines. “And” joins repeats or separate records; there may be more than shown. ± gives the spread as reported.

`CC(C)(C)CC(C)(C)c1ccc(OCCOCC[N+](C)(C)Cc2ccccc2)cc1` — result for fEPSP slope: “increased” (C57BL/6J mouse, male, hippocampal slices, Schaffer collateral-CA1; 300 nM, 60 min; baseline: vehicle).
`O=S(=O)([O-])C(F)(F)C(F)(F)C(F)(F)C(F)(F)C(F)(F)C(F)(F)C(F)(F)C(F)(F)F.[K+]`: protein expression “increased” (Western blot, item: Cyp2e1; EtOH-fed mice, liver; dose not given; baseline: efavirenz).
With `c1csc(-c2ccc(-c3cccs3)s2)c1` the steatosis was 27.4% (H&E histology; C57BL/6J diet-induced obese mice; intraperitoneal, 5 mg/kg daily, 14 days).
For `C[C@]12CC[C@H](O)C[C@H]1CC[C@@H]1[C@@H]2CC[C@]2(C)[C@@H](c3ccc(=O)oc3)CC[C@]12O`, the tumour volume was 43.6 mm3 and 49.5 mm3 and 52.9 mm3 and 49.9 mm3 and 41.5 mm3 and 83.3 mm3 and 36.8 mm3 (female nude mouse LCC2 xenograft; 1.0 mg/kg, day 15, tamoxifen-resistant).
`CC(=O)NC1CCN(c2ncnc3[nH]cc(-c4cccc(Cl)c4)c23)CC1` — result for phospho-MOB1 level: “decreased” (Western blot, item: MOB1 Thr35 phosphorylation; C57BL/6 mice, liver; intraperitoneal, 20 mg/kg, 1 h; baseline: vehicle).
`Clc1cc2c(cc1Cl)Oc1cc(Cl)c(Cl)cc1O2` has a mRNA level of 1.2 fold (RNA-Seq, item: Lta4h; female Sprague-Dawley rat, liver; dose not given; baseline: vehicle).
`CC(C)=CCC/C(C)=C/C(=O)O` has an IC50 of greater than 1 mM (pH gradient; Escherichia coli inverted membrane vesicles).
Under “objective response rate”, `C=CCNc1c(O)cc2c(O)c1C[C@@H](C)C[C@H](OC)[C@H](O)[C@@H](C)/C=C(\C)[C@H](OC(N)=O)[C@@H](OC)/C=C\C=C(/C)C(=O)N2` is recorded as 3% (RECIST v1.0; human GIST; dose not given).
`CC[C@@H](C)[C@@H](NC(=O)[C@@H](Cc1ccc(O)cc1)NC(=O)[C@H]1CCCN1C(=O)[C@@H](CCCNC(=N)N)NC(=O)[C@H](N)Cc1c[nH]cn1)C(=O)N[C@H](C)C(=O)N[C@H](Cc1c[nH]cn1)C(=O)N[C@H](CCCNC(=N)N)C(=O)N[C@H](CCCCNC(=O)c1cccc(S(=O)(=O)F)c1)C(=O)N[C@H](Cc1ccc(O)cc1)C(=O)N[C@H](CO)C(=O)N[C@H](Cc1ccccc1)C(N)=O`: “IFN-γ+ CD4+ T cell frequency” 7.97% and 6.97% and 4.24% and 3% and 2.94% (ex vivo flow cytometry; B16 tumour-bearing mice, tumour; dose not given).
`CS(=O)(=O)c1ccc(-c2nnc(/C=C/c3nnc(-c4ccc(C#N)cc4)o3)n2-c2ccccc2Cl)nc1`: “normalized enrichment score” 2.91 (RNA-seq GSEA, item: FALLER_ENTEROCYTE_MOUSE; organoids, small intestinal, Apc Q1405X, mouse; dose not given, 3 days, wild-type organoids; baseline: DMSO, direction not given).
The ethanol intake of `FC(F)(F)c1ccc2c(c1)[C@@H]1CNC[C@H]2C1` is reported as 6 ± 0.4 g/kg (two-bottle choice; Wistar rat, intermittent 20% ethanol access; subcutaneous, 1 mg/kg, 24 h).
For `Cc1nc(Nc2ccc(CC(=O)O)cc2)nc(Nc2ccc(F)c(C(F)(F)F)c2)c1C`, mRNA level read “decreased” (item: CPT1A; C57BL/6J mice, high-fat diet, liver; intraperitoneal, 0.3 mg/kg daily, 60% fat diet 12 weeks, dosed last four; baseline: vehicle).
`C=CC(=O)Nc1cc(Nc2ncc(Cl)c(Nc3ccccc3C(=O)C(=O)N(C)C)n2)c(OC)cc1N1CCN(C)CC1` — result for “patients with progressive disease”: 100% (RECIST v1.1 best response; human EGFR T790M NSCLC; oral, 25 mg/day, per-protocol set).
`COc1ccc2c(c1)CC[C@@H]1[C@@H]2CC[C@]2(C)[C@@H](NCCCCCCN3C(=O)C=CC3=O)CC[C@@H]12` gave an inhibition of 50% (calcium response, decay phase; N2a, mouse; 1 µM, with: ATP 300 µM).
`Cc1cn(-c2cc(NC(=O)c3ccc(C)c(Nc4nccc(-c5cccnc5)n4)c3)cc(C(F)(F)F)c2)cn1` — result for “ADAS-Cog maze time change”: 4.7 (human patients; dose not given, 6 months vs baseline, unit not given; baseline: placebo).
`CC[C@H](C)[C@@H]1NC(=O)[C@@H]2CCCN2C(=O)[C@H](CC(C)C)NC(=O)[C@H](CC(C)C)NC(=O)CNC(=O)[C@@H](NC(=O)[C@@H](NC(=O)[C@H](CC(=O)O)NC(=O)CNC(=O)[C@@H](NC(=O)[C@H](C)NC(=O)CNC(=O)[C@H](CCCCN)NC(=O)[C@H](CC(C)C)NC(=O)[C@H](CC(C)C)NC(=O)[C@H](CCCCN)NC(=O)CNC(=O)[C@@H](NC(=O)[C@@H](N)CC(C)C)C(C)C)C(C)C)C(C)C)CSSC[C@@H](C(=O)O)NC1=O`: “log2 fold change” -1.37 (RNA-seq, item: Egln3; mouse, traumatic brain injury model, frontal cortex and hippocampus; dose not given; baseline: TBI alone).
`CCCCC1(CCCC)CN(c2ccccc2)c2cc(SC)c(OCC(=O)N[C@@H](C(=O)NCC(=O)O)c3ccccc3)cc2S(=O)(=O)C1` has a serum HDL-C of 55.3 mg/dL (item: HDL cholesterol; human, serum; 2.5 mg once daily, day 9).
`NNc1ccccc1` has a normalised absorbance of 0.843 (hydrazine ligation kinetics, absorbance; concentration not given, 15 s, with: 2-formylphenylboronic acid).
With `C[C@H]1O[C@@H](O[C@H]2CC[C@@]3(C)[C@@H](CC[C@]4(C)[C@@H]3C=C[C@]35OC[C@@]6(CCC(C)(C)C[C@H]63)[C@@H](O)C[C@]54C)[C@]2(C)CO)[C@H](O)[C@@H](O[C@@H]2O[C@H](CO)[C@@H](O)[C@H](O)[C@H]2O)[C@H]1O` the steatosis area was 5.51% and 5.79% and 4.59% and 5.2% and 4.78% and 7.24% and 5.08% (H&E staining; AAV8-null control mice, no ethanol, liver; dose not given, high dose).
`CCCCC1CNC2CCc3ccc(OC)cc3C12.Cl` (racemic) — result for mRNA level: “increased” (RNA sequencing, item: ribosomal protein genes; SAMP8 mice, hippocampus; intracerebroventricular, 1.0 µg/µL, 24 h; baseline: vehicle).
`[Cl][Ru-]([Cl])([Cl])[Cl].[Na+].c1ccc2[nH]ncc2c1.c1ccc2[nH]ncc2c1`: “duration of disease control” 98 weeks (CT, RECIST 1.1; human; 320 mg/m2).
Under “urinary sodium excretion 0-24 h”, `C[C@]1(CO)Cc2ncn(-c3ccc(C#N)c(Cl)c3)c2C(=O)O1` is recorded as 159 mmol (Chinese subjects; 80 mg single dose).
The event-free survival of `CN1CCN(S(=O)(=O)c2cc([N+](=O)[O-])ccc2N(CCOS(C)(=O)=O)CCOS(C)(=O)=O)CC1` is reported as greater than 391 days (NSG mice, sample BJ PDX; intraperitoneal, 25 mg/kg weekly x3).
